Results from different studies.
Each line is one published result; not all experiments were run side by side. ± marks the error that the study gave.
Cell line: HCT-116

| Substance | assay | conditions | quantity | result |
| --- | --- | --- | --- | --- |
| jasplakinolide B | cell growth |  | IC50 | 140 nM |
| CC[C@H](C)[C@H](NC(=O)[C@@H](N)Cc1ccccc1)C(=O)NCC(=O)N[C@H](C(=O)N[C@@H](CC(C)C)C(=O)N[C@H](C(=O)N1CCC[C@H]1C(=O)N[C@@H](CC(C)C)C(=O)N[C@@H](C)C(=O)N[C@@H](CC(C)C)C(=O)NCC(=O)N[C@@H](C)C(=O)N[C@@H](CC(C)C)C(=O)N[C@H](C(=O)N[C@@H](CCCCN)C(=O)N[C@@H](CC(C)C)C(=O)N[C@@H](Cc1ccccc1)C(=O)N[C@@H](CCCCN)C(N)=O)[C@@H](C)O)[C@@H](C)CC)[C@@H](C)O | cell growth or viability, CCK-8 | 24 h | IC50 | 8350 nM |
| C[C@H](NCCc1ccc(O)cc1)C(=O)c1ccc(OCc2ccccc2)cc1 | cell viability, MTT | 72 h | IC50 | 24700 nM |
| Cn1ncnc2c(=O)n(C)c(=O)nc1-2 | cell growth or viability | 48 h | IC50 | ~300 nM |
| CCCCNNC(=O)c1ccc(Br)cc1 | HDAC activity, HDAC-Glo I/II |  | IC50 | 1800 nM |
| Cc1c(N)nc([C@H](CC(N)=O)NC[C@H](N)C(N)=O)nc1C(=O)N[C@H](C(=O)N[C@H](C)[C@@H](O)[C@H](C)C(=O)N[C@H](C(=O)NCCc1nc(-c2nc(C(=O)NCCCNCCCCN)cs2)cs1)[C@@H](C)O)[C@@H](O[C@@H]1O[C@@H](CO)[C@@H](O)[C@H](O)[C@@H]1O[C@@H]1O[C@H](CO)[C@@H](O)[C@H](OC(N)=O)[C@@H]1O)c1cnc[nH]1 |  |  | EC50 | 300 ± 600 nM |
| O=C1[O][Pt]2([NH][C@@H]3CCCC[C@H]3[NH]2)[O]C1=O | cell viability, MTS | 72 h | IC50 | 1000 nM |
| N.N.[Cl][Pt][Cl] | cell viability, MTS | 24 h | IC50 | 53800 ± 2100 nM |

Excerpt of the above:
| Substance | assay | conditions | quantity | result |
| --- | --- | --- | --- | --- |
| C[C@H](NCCc1ccc(O)cc1)C(=O)c1ccc(OCc2ccccc2)cc1 | cell viability, MTT | 72 h | IC50 | 24700 nM |
